{"data": "Measured values gathered from unrelated publications", "note": "A part holds a random share of what one study measured. Values joined by “and” are separate records of one study, mostly repeats; a detail may differ. Substitutions count along the parent as printed.", "UniProt P42336, sequence (whole entry, unmodified, looked up)": "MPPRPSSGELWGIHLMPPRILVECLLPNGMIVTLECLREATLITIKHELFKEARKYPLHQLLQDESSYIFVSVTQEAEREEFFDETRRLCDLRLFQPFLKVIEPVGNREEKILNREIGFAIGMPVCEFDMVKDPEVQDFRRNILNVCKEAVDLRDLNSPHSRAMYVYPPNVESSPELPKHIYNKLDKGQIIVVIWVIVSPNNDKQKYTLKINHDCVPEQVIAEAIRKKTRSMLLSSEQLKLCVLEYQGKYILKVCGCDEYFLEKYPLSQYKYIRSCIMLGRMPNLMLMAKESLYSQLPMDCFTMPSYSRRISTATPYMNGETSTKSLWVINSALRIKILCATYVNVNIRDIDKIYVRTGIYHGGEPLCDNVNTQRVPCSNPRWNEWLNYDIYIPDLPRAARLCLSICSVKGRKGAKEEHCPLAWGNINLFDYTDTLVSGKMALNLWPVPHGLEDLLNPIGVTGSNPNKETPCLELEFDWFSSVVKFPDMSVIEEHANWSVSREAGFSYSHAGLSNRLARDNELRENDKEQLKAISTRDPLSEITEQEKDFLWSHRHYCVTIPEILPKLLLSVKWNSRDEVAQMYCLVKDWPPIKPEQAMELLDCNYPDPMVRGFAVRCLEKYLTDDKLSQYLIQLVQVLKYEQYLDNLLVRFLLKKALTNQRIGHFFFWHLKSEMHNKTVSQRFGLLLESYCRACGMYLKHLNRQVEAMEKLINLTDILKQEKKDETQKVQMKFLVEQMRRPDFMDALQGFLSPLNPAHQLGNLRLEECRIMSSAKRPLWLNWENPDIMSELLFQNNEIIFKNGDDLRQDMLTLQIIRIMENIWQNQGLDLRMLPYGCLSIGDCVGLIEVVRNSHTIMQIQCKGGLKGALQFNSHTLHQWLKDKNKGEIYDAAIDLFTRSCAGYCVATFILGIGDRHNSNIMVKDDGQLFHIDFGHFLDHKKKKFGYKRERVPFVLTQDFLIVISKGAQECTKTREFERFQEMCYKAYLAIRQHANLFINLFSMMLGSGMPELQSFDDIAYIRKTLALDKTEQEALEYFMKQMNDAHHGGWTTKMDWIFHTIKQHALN", "UniProt P53667, sequence (whole entry, looked up)": "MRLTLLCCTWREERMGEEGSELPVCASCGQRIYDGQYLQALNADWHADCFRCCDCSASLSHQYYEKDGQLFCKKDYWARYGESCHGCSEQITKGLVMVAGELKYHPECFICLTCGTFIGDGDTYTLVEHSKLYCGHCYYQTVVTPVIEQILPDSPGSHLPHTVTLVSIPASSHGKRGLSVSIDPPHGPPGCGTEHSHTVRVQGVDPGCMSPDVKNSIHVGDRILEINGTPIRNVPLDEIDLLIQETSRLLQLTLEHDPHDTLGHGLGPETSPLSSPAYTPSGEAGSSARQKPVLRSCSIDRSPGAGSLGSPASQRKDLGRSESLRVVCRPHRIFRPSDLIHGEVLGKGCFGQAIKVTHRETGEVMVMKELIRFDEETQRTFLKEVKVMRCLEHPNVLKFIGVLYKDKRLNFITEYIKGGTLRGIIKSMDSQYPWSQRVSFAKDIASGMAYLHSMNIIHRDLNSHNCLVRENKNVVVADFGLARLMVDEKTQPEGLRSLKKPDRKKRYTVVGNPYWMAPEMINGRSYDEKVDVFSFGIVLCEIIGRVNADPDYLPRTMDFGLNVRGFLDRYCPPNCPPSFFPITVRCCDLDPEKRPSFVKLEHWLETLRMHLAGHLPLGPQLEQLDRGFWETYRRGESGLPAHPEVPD", "UniProt P08069, sequence (whole entry, looked up)": "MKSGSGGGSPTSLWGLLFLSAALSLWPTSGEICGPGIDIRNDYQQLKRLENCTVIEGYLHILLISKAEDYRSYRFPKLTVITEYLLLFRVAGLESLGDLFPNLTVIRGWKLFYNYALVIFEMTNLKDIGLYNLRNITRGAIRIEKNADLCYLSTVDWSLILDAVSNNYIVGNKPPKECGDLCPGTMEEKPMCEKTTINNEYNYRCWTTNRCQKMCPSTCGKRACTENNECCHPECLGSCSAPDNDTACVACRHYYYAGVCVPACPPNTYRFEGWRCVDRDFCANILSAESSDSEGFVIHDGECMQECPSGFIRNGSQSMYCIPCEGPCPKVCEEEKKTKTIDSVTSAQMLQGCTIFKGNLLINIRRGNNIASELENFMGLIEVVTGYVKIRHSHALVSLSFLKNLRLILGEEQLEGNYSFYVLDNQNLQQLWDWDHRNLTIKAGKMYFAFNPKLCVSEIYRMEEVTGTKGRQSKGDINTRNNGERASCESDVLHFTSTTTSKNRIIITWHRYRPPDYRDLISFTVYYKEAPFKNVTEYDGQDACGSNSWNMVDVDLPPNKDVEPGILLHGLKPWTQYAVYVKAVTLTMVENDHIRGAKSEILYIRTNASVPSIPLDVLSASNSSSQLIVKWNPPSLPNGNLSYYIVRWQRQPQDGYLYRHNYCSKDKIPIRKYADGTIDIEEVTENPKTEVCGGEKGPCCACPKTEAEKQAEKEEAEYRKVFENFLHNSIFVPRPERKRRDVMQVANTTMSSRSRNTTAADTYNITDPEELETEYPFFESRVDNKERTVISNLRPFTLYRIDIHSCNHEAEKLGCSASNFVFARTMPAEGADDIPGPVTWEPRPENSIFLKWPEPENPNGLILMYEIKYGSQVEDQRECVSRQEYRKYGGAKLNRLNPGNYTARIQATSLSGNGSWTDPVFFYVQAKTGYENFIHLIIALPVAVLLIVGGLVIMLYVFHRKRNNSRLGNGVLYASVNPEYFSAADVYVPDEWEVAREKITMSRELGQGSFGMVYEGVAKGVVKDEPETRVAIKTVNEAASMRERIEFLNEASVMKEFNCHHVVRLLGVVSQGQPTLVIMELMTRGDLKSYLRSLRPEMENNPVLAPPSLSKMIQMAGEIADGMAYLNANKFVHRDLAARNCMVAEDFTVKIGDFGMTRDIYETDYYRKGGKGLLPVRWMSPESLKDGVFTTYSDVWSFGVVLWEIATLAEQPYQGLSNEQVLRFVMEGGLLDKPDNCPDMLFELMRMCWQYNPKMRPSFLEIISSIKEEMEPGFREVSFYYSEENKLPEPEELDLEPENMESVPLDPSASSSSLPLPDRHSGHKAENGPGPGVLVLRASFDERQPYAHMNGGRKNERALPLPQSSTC", "UniProt O76039, sequence (whole entry, looked up)": "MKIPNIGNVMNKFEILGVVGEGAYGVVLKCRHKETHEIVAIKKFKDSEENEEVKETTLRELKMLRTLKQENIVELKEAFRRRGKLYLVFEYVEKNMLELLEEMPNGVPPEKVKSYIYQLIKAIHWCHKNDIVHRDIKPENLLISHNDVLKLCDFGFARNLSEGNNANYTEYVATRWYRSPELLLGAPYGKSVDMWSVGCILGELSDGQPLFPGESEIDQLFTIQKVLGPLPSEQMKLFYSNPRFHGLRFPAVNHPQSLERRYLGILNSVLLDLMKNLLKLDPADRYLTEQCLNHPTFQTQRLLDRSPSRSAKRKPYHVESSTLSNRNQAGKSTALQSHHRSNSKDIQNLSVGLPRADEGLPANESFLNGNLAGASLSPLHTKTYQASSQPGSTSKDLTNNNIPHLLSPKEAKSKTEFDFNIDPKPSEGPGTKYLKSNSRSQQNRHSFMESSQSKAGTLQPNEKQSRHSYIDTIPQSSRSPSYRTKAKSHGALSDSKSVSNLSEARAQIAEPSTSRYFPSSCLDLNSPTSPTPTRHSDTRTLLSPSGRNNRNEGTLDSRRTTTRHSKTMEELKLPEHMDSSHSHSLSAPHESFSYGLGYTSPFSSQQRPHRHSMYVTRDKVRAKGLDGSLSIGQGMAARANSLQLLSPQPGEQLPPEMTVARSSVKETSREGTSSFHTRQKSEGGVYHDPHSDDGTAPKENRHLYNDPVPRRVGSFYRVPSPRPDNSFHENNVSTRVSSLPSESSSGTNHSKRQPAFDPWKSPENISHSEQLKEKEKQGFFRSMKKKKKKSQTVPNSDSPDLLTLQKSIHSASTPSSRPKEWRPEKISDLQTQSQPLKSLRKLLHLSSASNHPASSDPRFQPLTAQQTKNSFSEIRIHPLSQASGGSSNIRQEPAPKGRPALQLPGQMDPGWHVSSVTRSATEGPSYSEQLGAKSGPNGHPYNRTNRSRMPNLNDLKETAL"}
{"data": "Sample 1", "SMILES": "Cn1cncc1[C@@](O)(COc1ccc(C#N)cc1-c1ccc(OC(F)(F)F)cc1)c1ccc(C#N)cc1", "method": "competition with immobilised ligand", "tested at": "1 µM"}
{"target": "CDKL5 (Homo sapiens, UniProt O76039)", "effect on": "binding", "remaining binding [%]": 93}
{"target": "NEK2 (Homo sapiens, UniProt P51955)", "effect on": "cell-free assay", "remaining binding [%]": 95}
{"target": "IGF1R (Homo sapiens, UniProt P08069)", "effect on": "cell-free assay", "remaining binding [%]": 100}
{"target": "LIM domain kinase 1 (LIMK1, Homo sapiens, UniProt P53667)", "effect on": "cell-free assay", "remaining binding [%]": 100}
{"target": "PIK3CA (Homo sapiens, UniProt P42336, E545K)", "effect on": "cell-free assay", "remaining binding [%]": 80}
{"target": "TNIK (Homo sapiens, UniProt Q9UKE5)", "effect on": "cell-free assay", "remaining binding [%]": 99}
{"target": "RAF1 (Homo sapiens, UniProt P04049)", "effect on": "cell-free assay", "remaining binding [%]": 85}
{"target": "EGFR (Homo sapiens, UniProt P00533, G719C)", "effect on": "cell-free assay", "remaining binding [%]": 66}
{"target": "PIK3CA (Homo sapiens, UniProt P42336, H1047L)", "effect on": "cell-free assay", "remaining binding [%]": 100}
{"target": "Ribosomal protein S6 kinase alpha-6, N-terminal kinase domain (RPS6KA6, Homo sapiens, UniProt Q9UK32)", "effect on": "cell-free assay", "remaining binding [%]": 94}
{"target": "KIT (Homo sapiens, UniProt P10721, L576P)", "effect on": "cell-free assay", "remaining binding [%]": 95}
{"target": "ULK2 (Homo sapiens, UniProt Q8IYT8)", "effect on": "cell-free assay", "remaining binding [%]": 100}
{"target": "FLT3 (Homo sapiens, UniProt P36888, F691L/ITD)", "effect on": "cell-free assay", "remaining binding [%]": 100}
{"data": "Sample 2", "target": "CCNE1, cyclin fold, Cln2 fusion (human)", "method": "yeast growth competition, sequencing", "matrix": "yeast", "notes": "strong parent motif", "reference": "not given", "reading": "higher = stronger binding", "parent": "viral docking peptide; YKVKRRLVFGADD; partner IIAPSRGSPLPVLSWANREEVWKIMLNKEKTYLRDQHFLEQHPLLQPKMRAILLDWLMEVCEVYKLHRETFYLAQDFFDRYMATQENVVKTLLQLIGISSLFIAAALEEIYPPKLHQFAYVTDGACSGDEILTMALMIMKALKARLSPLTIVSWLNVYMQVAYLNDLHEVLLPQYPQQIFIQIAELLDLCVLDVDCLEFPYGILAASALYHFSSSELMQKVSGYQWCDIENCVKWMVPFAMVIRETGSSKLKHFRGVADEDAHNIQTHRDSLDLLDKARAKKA"}
{"Variant": "A11F", "normalised enrichment score": 6.03}
{"Variant": "V8N", "normalised enrichment score": 6.44}
{"Variant": "L7S", "normalised enrichment score": 0.636}
{"Variant": "K2A", "normalised enrichment score": 5.77}
{"Variant": "A11M", "normalised enrichment score": 6.42}
{"Variant": "V8L", "normalised enrichment score": 5.57}
{"Variant": "R6W", "normalised enrichment score": 2.32}
{"Variant": "K4F", "normalised enrichment score": 1.28}
{"data": "Sample 3", "target": "tungstate, free oxyanion", "method": "microfluidic competitive inhibition", "matrix": "in vitro, cell-free expressed", "tested at": "not given", "notes": "derived from inhibition constants, unchanged parent 2230 nM", "reading": "lower = stronger binding", "parent": "PafA, mature enzyme, eGFP fusion (Elizabethkingia meningoseptica, UniProt Q9KJX5); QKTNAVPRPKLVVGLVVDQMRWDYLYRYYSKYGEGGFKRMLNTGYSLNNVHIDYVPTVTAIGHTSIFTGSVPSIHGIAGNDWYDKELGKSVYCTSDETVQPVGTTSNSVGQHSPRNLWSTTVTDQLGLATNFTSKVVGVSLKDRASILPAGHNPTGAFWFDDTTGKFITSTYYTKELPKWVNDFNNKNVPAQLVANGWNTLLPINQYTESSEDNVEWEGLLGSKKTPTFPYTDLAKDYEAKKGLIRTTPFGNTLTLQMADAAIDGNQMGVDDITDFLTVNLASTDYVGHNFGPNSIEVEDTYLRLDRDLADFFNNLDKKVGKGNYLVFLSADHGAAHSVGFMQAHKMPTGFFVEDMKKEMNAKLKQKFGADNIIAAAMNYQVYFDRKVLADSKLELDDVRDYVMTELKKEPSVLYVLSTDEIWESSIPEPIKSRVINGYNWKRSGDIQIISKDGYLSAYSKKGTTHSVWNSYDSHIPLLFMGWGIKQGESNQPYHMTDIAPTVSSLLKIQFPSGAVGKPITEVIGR"}
{"Variant": "V6A", "oxyanion analog dissociation constant [µM]": 2}
{"Variant": "Y415V", "oxyanion analog dissociation constant [µM]": 1.28}
{"Variant": "L277V", "oxyanion analog dissociation constant [µM]": 2.32}
{"Variant": "K224V", "oxyanion analog dissociation constant [µM]": 2.2}
{"Variant": "Q100V", "oxyanion analog dissociation constant [µM]": 2.53}
{"Variant": "D498G", "oxyanion analog dissociation constant [µM]": 1.78}
{"Variant": "D397V", "oxyanion analog dissociation constant [µM]": 2.6}
{"Variant": "P203G", "oxyanion analog dissociation constant [µM]": 1.86}
{"data": "Other studies, line by line"}
{"SMILES": "CNC(=O)c1ccc(-c2cnn3ccc(C(=O)N(C)c4ccc(Cl)c(C(=O)OC)c4)cc23)cc1", "organism": "Cryptosporidium parvum", "assay": "time-kill", "test system": "nanoluciferase-expressing", "setting": "81 nM, 4 h", "how to read": "reference: DMSO", "endpoint": "luminescence", "result": "118% and 116%"}
{"note": "For quick reference, copied from above (sample 3):"}
{"Variant": "L277V", "oxyanion analog dissociation constant [µM]": 2.32}
{"Variant": "K224V", "oxyanion analog dissociation constant [µM]": 2.2}
{"Variant": "Q100V", "oxyanion analog dissociation constant [µM]": 2.53}
{"Variant": "D498G", "oxyanion analog dissociation constant [µM]": 1.78}
